Results gathered from unrelated publications.
Compare with care: the assays were run in different laboratories. “And” joins repeats or separate records; there may be more than shown. ± gives the spread as reported.
Sequence of UniProt Q9BZL6 (whole entry, looked up): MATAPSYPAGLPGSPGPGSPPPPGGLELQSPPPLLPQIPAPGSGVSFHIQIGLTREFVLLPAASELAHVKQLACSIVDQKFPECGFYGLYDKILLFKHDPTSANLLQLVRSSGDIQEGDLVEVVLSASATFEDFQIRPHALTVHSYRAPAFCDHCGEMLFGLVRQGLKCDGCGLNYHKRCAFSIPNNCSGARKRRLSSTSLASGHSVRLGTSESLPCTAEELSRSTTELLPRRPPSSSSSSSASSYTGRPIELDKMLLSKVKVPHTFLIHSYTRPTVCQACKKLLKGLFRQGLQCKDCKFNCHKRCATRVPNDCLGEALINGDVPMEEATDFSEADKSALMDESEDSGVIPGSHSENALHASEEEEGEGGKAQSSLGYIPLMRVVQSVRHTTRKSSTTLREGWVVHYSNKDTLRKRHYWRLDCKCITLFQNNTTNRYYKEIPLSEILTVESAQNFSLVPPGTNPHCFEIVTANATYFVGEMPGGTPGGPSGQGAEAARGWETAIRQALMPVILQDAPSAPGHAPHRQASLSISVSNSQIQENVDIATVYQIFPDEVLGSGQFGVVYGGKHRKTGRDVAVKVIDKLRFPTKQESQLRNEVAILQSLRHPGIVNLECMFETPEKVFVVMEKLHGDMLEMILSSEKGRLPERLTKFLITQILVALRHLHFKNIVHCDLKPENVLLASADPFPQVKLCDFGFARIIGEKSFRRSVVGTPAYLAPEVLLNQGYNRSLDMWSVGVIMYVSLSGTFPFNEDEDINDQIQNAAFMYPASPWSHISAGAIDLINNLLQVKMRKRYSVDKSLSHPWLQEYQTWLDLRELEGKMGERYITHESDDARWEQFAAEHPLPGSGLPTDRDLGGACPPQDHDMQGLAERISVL
Sequence of UniProt P17948 (whole entry, looked up): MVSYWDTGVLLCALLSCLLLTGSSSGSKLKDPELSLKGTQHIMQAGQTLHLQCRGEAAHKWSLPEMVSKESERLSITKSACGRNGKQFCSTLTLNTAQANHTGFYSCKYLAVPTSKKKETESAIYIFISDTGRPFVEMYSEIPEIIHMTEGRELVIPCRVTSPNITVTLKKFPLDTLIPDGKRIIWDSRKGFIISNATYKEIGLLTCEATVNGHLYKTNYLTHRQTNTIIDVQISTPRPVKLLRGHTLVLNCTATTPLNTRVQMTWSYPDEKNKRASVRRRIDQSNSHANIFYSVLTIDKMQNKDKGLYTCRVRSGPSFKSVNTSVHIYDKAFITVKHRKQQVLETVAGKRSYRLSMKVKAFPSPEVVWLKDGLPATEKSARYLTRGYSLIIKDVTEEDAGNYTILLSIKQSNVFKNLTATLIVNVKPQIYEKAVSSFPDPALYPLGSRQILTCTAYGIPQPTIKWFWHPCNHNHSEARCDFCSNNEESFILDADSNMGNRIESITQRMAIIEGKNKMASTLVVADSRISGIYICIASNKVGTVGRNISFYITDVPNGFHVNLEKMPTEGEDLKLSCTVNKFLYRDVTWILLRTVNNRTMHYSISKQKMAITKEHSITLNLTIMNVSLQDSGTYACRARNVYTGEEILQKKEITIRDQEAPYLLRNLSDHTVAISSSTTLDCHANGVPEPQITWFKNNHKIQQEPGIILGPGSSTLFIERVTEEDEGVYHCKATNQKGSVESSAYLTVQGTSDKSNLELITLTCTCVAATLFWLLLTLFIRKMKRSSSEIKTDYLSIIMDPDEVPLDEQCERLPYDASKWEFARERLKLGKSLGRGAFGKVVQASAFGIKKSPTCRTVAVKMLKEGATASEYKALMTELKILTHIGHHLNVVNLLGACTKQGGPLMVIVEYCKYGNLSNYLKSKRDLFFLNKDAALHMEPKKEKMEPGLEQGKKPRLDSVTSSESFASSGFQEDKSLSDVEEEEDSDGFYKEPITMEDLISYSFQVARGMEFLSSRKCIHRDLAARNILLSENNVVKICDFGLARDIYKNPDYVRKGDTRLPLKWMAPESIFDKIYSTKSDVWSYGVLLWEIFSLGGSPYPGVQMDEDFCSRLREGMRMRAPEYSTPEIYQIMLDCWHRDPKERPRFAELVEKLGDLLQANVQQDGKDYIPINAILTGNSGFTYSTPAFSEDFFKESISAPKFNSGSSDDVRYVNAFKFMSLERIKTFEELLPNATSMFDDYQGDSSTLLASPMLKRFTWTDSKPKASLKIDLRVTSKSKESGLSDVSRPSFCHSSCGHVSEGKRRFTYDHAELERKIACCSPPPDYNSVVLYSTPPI
Sequence of UniProt P57059 (whole entry, looked up): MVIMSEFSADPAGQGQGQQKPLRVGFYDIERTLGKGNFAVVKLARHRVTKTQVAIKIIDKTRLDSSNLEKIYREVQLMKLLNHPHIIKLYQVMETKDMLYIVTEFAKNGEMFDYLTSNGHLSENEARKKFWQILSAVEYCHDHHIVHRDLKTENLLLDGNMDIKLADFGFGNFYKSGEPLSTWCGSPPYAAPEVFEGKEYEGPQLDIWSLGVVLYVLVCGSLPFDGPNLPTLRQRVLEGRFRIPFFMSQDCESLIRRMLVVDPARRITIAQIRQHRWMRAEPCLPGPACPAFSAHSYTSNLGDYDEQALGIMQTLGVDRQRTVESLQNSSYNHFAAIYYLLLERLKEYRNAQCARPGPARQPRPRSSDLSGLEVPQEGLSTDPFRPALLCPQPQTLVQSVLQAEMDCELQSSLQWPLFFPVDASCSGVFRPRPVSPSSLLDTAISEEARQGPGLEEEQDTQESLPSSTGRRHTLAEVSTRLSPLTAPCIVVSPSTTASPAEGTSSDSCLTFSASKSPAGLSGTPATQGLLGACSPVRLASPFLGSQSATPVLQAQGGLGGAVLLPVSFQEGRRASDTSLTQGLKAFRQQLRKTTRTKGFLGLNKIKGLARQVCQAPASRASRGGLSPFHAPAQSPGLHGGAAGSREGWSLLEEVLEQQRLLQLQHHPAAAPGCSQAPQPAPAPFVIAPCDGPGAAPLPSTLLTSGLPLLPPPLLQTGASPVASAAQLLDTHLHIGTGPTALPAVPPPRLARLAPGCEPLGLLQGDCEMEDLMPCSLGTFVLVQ
Sequence of UniProt Q9Y2J8 (whole entry, looked up): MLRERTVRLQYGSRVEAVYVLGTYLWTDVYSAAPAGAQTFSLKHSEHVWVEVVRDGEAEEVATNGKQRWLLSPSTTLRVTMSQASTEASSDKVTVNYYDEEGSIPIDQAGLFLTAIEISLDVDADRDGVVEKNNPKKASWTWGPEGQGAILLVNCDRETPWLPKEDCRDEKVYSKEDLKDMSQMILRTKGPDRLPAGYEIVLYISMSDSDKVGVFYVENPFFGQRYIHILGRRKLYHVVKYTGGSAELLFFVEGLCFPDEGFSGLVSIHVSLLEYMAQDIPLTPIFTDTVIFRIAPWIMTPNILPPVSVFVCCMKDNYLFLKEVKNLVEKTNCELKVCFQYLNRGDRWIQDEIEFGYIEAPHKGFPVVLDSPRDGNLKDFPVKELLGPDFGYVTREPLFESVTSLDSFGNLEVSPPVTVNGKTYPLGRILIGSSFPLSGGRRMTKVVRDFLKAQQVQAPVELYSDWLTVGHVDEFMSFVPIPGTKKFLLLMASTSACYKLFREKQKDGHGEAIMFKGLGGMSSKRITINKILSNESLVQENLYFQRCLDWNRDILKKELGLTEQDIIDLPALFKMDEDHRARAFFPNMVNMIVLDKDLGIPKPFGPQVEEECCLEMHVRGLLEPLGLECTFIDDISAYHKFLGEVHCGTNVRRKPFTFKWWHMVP

Compound	target or system	assay	system	conditions	how to read	measurement	result
CN(C)[C@H]1C[C@@]23CC[C@@]4(O2)C(=CC[C@]2(C)[C@@H](c5ccc6ccncc6c5)CC[C@H]24)C=C3[C@@H](O)[C@@H]1O	RIPK3 (Homo sapiens, UniProt Q9Y572)	ATP probe labelling, inhibitor, KiNativ profiling	–	0.1 µM	–	inhibition	3.4%
COc1ccccc1-c1n[nH]c2nc(NC3CCN(C(=O)Cc4ccc(F)cc4F)CC3)ncc12	–	bead binding, competition bead pull-down, item: LINJ.30.1580	Leishmania donovani axenic amastigote extract	10 µM	relative to: vehicle	relative abundance	0.24
Cc1sc2c(c1C)C(c1ccc(Cl)cc1)=NC(CC(=O)OC(C)(C)C)c1nnc(C)n1-2 (stereo not drawn)	ADORA3 (Homo sapiens, UniProt P0DMS8)	ligand displacement, radioligand	–	1 µM	–	remaining binding	39.3%
CS(C)(=O)=Nc1ccc(-c2ccc(-c3nc4cc(O[C@@H]5CO[C@H]6[C@@H]5OC[C@H]6O)[nH]c4cc3F)cc2)cc1	FLT1 (Homo sapiens, UniProt P17948)	enzyme activity, inhibitor	–	10 µM	–	inhibition	12%
O=C1NC(=O)c2c1c1cc(F)c[n+]3c1c1c2c2cc(O)ccc2[n]1[Ru-4]312([N]=C=S)[S+]3CC[S+]1CC[S+]2CC3 (stereo not drawn)	PRKD2 (Homo sapiens, UniProt Q9BZL6)	enzyme activity	–	100 nM, human enzyme, with: 10 µM ATP	relative to: untreated	remaining activity	81%
CC(C)[C@H]1NC(=O)C[C@H]2/C=C/CCSSC[C@@H](NC1=O)C(=O)N[C@H](Cc1cccc3ccccc13)C(=O)NCC(=O)O2	SIK1 (Homo sapiens, UniProt P57059)	–	–	10 µM	–	inhibition	4.2%
N[C@H](C(=O)N1CCCC1)C1CCN(c2nccc3c(-c4ncc(Cl)cc4Cl)cccc23)CC1	PADI2 (Homo sapiens, UniProt Q9Y2J8)	enzyme activity	–	0.03932 µM, low-affinity site, with: Ca2+ 0.25 mM	–	kcat	0.607 s⁻¹
CC(C)CC(C(=O)N1CC2(CC1C#N)C(=O)Nc1ccccc12)N(C)C(=O)c1cc2c(F)cc(F)c(F)c2[nH]1 (stereo not drawn)	Replicase polyprotein 1ab, main protease (rep, Porcine epidemic diarrhea virus, UniProt P0C6Y4)	protease activity, inhibitor	–	10 µM	–	remaining activity	0.67%
Cc1ccc(OCCN(C)C)cc1C(=O)N[C@H](C)c1cc(-c2cncs2)nc2ccccc12	Vero E6	–	–	7.812 µM	–	viability	98.3% and 116%
Nc1ccc(/C=C/C(=O)N2CCc3c(oc4c(-c5ccc(F)cc5)cc(-c5ccc(C(=O)N6CCC(F)(F)CC6)cn5)cc34)C2)cn1	ERBB2 (Homo sapiens, UniProt P04626)	binding, competition with immobilised ligand	–	1 µM	–	remaining binding	100%
O=C1NC2(CC2)COc2ncc(F)cc2[C@H]2COCCN2c2ccn3ncc1c3n2	–	–	Sprague-Dawley rat, male, kidneys	oral, 10 mg/kg/day, 4 weeks, end of treatment	–	organ-to-brain weight ratio	166 ± 47.3%
Cc1ccc(N(C)C2(C)CN(C)C2)cc1C(=O)N[C@H](C)c1cc(-c2cnn(C)c2)nc2ccccc12	Vero E6	–	–	15.62 µM	–	viability	101% and 99.8% and 97.8%

For quick reference, copied from above:
Compound	target or system	assay	system	conditions	how to read	measurement	result
Nc1ccc(/C=C/C(=O)N2CCc3c(oc4c(-c5ccc(F)cc5)cc(-c5ccc(C(=O)N6CCC(F)(F)CC6)cn5)cc34)C2)cn1	ERBB2 (Homo sapiens, UniProt P04626)	binding, competition with immobilised ligand	–	1 µM	–	remaining binding	100%
